Results gathered from unrelated publications.
Parts stem from different laboratories: compare values within a part only. Changes are numbered by the printed parent chain.

Study 1 — target: Sox-I, HMG box (Salpingoeca helianthica); technique: Spec-seq; form: double-stranded DNA, one strand shown; medium: in vitro; tested at: not given; setting: whole probe, mean of replicates; baseline: not given; reading: lower = stronger binding; all sequences stand within: GAGTCGTCTCGTCAGCAC … TCCGTAGAGCACTCAGGTC
Residues (chain): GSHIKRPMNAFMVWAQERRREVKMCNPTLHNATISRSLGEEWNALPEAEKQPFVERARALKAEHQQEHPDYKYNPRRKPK
Sequence | relative binding energy [ln ratio]
TGTGGT | 0.575
CATCGA | 1
GGGCGT | 1.19
CCCAGT | -0.0138
CTACGT | 0.845

Study 2 — technique: RNA Bind-n-Seq; form: RNA; medium: in vitro; tested at: 365 nM; baseline: no-protein control; reading: higher = stronger binding
Target: RNA binding protein fox-1 homolog 2, RRM domain, GST-SBP tag (RBFOX2, Homo sapiens, UniProt O43251-10, residues 100-194)
Setting: natural RNA segment, single round, ends assumed
Construct (chain): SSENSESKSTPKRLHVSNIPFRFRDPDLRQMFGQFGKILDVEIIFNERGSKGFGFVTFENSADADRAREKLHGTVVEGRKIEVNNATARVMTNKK
Sequence | RBNS enrichment (R)
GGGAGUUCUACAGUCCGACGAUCAAAAAUUAUCAAAAAGCUGAUGUGCAGGGAUAUUGCCUUAUUUGUCUGUAAAAAUGUAGCUCAGUAACAUAACUGCUUCUUGGAGCUUUGGAAUAUUUUAUCCUGUAUUCUGGAAUUCUCGGGUGCCAA | 0.498
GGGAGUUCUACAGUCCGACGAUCUUAUGUGUUGGGUGACCACAAAAUCAACAGUAACUGAGAGAAACGAAUUCAUUUUGUAAAUAAUGUUCAACGUUAAGAAUACCUAUAUUCCUUUUGUAGAUGAGUAUGAUUGGAAUUCUCGGGUGCCAA | 0.916
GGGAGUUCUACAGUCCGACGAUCUUUUAUGCAGACACGUGUCUGAAAAAUUAAAAUCCAUUGUCCAAACUUCCAUACAUUAGGUAACGUCUUAUAAUGUAAGGACAUGGUAUCCACUGCCCUAAAGAUUUAGAUGGAAUUCUCGGGUGCCAA | 0.483
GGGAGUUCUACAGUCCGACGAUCUGGAGACAUAGGGGCUGCUACCAGGGGAGGAACACACCUGGGUGUGGGGCAGCUUCUGGCAUCUUCCCAGGCCCCCUUUCCCAGCCGGGUGUGGAGCUAGGUAGGCUAGGUGGAAUUCUCGGGUGCCAA | 0.479
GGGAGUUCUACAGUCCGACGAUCUUCCUCCUUUGCUUUCACUUCUUAAGUAUAUGUGUUCUGAAGUUGAGAUGGGAGAGAUUUGAAUAUAGAAUUUUUAUUCUCAAACUGUUUAGUCAUCUAAGGCUUCAUUGUGGAAUUCUCGGGUGCCAA | 0.562
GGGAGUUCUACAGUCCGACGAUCUAGCUGCUGCUAAAACAAUGCUAGCCUAAAGAUACAGGAGUCUCUGACAAAAUGACUUUCAUGUUAAGGGGAAAUGCUGUUUAUCUACUCAGACAUGCAUCUGUGAUGUUUGGAAUUCUCGGGUGCCAA | 0.332

Study 3 — technique: DHFR PCA, deep sequencing; medium: yeast; added: (+)-ABA 0 µM; baseline: wild-type fitted maximum; reading: higher = stronger binding
Target: ABI1, truncated, D143A, DHFR fusion (Arabidopsis thaliana)
Setting: methotrexate growth selection, single substitutions
Starting sequence: PYL1, truncated, DHFR fusion (Arabidopsis thaliana); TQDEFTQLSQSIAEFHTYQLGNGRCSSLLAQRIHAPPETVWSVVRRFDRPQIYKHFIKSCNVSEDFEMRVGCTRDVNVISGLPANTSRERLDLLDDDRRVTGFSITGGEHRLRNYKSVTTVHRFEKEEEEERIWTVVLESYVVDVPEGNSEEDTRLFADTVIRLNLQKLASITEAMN
Variant | relative binding score
G23F | -0.103%
P83L | 5.75%
F124C | 23.5%
D144Y | 3.42%
T120D | -4.54%
N177R | 16.1%

Other studies, line by line
Substance | target | test | test system | setting | scale | measurement | value
PhoQ, residues 284 288 289 292 302 303 WVSSAF | PhoP, residues 12 14 15 18 19 DLLYY (Escherichia coli, UniProt P23836) | Sort-seq, refers to: YFP reporter | E. coli | PhoQ-PhoP variant library, added: 10 µM Mg2+ | baseline: high Mg2+ state, higher = stronger signaling | fold induction | 1.23

A few entries again (study 2):
Sequence | RBNS enrichment (R)
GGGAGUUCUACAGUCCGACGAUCUAGCUGCUGCUAAAACAAUGCUAGCCUAAAGAUACAGGAGUCUCUGACAAAAUGACUUUCAUGUUAAGGGGAAAUGCUGUUUAUCUACUCAGACAUGCAUCUGUGAUGUUUGGAAUUCUCGGGUGCCAA | 0.332
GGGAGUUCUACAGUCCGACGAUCUUAUGUGUUGGGUGACCACAAAAUCAACAGUAACUGAGAGAAACGAAUUCAUUUUGUAAAUAAUGUUCAACGUUAAGAAUACCUAUAUUCCUUUUGUAGAUGAGUAUGAUUGGAAUUCUCGGGUGCCAA | 0.916
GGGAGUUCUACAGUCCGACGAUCUGGAGACAUAGGGGCUGCUACCAGGGGAGGAACACACCUGGGUGUGGGGCAGCUUCUGGCAUCUUCCCAGGCCCCCUUUCCCAGCCGGGUGUGGAGCUAGGUAGGCUAGGUGGAAUUCUCGGGUGCCAA | 0.479
